Experimental data collected from several papers.
Each numbered part is a random draw from the data of one study; scales do not carry over between parts.
UniProt Q13131, sequence (whole entry, looked up): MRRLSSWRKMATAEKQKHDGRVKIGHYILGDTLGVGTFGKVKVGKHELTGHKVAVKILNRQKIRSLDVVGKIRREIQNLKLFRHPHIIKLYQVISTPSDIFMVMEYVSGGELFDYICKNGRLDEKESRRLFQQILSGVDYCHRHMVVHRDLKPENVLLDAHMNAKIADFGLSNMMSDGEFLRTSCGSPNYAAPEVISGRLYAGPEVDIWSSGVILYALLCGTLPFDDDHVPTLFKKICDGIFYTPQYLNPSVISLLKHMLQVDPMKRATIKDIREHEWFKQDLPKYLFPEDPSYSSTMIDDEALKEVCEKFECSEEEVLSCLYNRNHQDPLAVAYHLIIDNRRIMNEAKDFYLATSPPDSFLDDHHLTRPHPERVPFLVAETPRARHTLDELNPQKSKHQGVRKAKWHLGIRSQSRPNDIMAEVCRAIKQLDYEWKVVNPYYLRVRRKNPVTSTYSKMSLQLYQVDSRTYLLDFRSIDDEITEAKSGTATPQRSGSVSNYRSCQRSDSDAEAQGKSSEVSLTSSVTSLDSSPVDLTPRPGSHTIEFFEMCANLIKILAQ
UniProt Q7KZI7, sequence (whole entry, looked up): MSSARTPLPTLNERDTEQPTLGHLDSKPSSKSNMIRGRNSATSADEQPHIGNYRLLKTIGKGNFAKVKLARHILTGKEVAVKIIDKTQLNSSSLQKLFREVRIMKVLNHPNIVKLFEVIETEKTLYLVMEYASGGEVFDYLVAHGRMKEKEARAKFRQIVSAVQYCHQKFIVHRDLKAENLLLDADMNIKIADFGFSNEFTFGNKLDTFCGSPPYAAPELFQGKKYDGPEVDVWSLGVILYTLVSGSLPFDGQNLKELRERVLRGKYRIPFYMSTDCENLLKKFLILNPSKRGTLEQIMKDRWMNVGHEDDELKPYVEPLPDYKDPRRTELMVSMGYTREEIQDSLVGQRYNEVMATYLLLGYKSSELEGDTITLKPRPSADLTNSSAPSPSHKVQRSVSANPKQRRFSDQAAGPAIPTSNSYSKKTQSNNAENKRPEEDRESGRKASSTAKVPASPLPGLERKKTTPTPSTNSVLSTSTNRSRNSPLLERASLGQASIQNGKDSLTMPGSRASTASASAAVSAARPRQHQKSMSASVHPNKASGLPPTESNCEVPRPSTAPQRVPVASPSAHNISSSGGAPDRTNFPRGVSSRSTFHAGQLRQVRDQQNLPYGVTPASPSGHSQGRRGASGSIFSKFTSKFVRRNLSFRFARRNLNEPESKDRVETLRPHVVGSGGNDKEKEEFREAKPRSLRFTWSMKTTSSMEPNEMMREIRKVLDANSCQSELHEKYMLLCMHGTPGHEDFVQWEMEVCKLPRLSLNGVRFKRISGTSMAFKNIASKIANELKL
UniProt P28482, sequence (whole entry, looked up): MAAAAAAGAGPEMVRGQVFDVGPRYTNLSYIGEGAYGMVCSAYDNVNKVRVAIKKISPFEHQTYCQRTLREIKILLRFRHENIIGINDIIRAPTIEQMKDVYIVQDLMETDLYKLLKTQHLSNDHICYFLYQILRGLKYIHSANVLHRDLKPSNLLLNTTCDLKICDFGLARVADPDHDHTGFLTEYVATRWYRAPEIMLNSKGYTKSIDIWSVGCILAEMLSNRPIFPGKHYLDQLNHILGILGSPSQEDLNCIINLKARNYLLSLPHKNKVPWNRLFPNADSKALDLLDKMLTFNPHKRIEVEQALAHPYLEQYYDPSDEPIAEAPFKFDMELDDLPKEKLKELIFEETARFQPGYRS
UniProt O75914, sequence (whole entry, looked up): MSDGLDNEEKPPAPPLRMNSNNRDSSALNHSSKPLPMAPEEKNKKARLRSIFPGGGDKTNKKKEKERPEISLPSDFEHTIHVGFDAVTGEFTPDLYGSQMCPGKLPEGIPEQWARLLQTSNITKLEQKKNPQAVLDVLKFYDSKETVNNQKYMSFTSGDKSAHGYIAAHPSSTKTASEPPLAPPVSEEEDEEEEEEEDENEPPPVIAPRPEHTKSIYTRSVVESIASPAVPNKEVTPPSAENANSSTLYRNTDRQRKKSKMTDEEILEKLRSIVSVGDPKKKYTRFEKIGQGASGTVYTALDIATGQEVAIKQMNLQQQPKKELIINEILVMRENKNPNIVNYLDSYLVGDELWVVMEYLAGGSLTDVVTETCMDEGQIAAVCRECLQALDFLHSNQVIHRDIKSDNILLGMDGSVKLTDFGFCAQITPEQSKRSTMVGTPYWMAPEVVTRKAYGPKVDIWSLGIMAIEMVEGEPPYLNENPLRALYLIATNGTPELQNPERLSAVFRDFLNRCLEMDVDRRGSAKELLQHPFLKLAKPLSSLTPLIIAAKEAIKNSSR
UniProt Q9Y5S2, sequence (whole entry, looked up): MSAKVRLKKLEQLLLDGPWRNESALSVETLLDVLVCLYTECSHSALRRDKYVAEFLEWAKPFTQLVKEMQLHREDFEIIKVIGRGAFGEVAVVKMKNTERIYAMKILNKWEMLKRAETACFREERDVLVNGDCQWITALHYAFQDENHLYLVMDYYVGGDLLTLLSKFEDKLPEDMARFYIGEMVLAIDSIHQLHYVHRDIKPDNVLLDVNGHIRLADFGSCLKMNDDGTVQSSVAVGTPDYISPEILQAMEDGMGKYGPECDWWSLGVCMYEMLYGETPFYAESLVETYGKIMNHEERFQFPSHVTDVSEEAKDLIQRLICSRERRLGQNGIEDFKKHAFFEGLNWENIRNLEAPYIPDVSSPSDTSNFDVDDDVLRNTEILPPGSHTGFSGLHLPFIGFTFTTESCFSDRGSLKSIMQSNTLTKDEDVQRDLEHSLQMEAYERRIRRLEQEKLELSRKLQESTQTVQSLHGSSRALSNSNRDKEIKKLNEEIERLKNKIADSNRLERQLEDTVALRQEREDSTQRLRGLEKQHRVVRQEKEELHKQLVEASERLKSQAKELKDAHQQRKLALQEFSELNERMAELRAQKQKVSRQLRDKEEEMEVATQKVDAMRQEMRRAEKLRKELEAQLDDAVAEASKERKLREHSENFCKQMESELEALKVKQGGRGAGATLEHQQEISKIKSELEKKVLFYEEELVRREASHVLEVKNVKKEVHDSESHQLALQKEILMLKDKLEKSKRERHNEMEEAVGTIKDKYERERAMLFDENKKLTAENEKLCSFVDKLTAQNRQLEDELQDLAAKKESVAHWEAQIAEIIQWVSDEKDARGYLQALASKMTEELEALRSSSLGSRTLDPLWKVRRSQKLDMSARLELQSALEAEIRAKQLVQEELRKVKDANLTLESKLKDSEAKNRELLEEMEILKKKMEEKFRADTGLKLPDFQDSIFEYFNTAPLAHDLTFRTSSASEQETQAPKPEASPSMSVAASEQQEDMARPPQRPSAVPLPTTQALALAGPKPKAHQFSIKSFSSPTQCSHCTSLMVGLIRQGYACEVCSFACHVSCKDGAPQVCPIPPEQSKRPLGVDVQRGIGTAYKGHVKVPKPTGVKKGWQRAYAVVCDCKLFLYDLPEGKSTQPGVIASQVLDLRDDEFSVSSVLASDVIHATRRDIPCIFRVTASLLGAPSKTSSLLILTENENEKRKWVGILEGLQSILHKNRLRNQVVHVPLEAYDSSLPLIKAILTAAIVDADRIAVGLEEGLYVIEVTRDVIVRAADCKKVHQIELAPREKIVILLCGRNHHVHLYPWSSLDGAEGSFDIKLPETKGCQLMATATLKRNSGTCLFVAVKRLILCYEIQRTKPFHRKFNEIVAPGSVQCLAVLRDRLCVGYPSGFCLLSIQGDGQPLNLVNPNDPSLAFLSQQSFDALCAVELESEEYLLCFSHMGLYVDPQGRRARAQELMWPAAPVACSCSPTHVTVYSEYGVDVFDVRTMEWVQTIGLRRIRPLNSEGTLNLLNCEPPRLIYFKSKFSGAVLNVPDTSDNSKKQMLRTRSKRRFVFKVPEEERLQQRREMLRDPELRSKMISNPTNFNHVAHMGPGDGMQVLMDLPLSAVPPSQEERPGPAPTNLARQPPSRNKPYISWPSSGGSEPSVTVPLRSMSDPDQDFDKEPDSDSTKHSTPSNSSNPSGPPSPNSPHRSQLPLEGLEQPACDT
UniProt Q02750, sequence (whole entry, looked up): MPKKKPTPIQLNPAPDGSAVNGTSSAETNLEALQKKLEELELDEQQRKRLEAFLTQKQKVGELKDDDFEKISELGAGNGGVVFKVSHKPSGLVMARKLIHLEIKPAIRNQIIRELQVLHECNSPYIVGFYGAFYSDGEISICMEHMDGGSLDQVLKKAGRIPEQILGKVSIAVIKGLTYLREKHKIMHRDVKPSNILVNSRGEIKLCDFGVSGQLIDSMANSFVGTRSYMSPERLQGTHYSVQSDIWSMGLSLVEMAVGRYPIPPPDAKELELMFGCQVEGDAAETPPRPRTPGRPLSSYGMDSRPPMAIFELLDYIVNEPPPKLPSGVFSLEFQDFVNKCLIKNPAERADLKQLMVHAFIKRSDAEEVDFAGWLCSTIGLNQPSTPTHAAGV
UniProt P51956, sequence (whole entry, looked up): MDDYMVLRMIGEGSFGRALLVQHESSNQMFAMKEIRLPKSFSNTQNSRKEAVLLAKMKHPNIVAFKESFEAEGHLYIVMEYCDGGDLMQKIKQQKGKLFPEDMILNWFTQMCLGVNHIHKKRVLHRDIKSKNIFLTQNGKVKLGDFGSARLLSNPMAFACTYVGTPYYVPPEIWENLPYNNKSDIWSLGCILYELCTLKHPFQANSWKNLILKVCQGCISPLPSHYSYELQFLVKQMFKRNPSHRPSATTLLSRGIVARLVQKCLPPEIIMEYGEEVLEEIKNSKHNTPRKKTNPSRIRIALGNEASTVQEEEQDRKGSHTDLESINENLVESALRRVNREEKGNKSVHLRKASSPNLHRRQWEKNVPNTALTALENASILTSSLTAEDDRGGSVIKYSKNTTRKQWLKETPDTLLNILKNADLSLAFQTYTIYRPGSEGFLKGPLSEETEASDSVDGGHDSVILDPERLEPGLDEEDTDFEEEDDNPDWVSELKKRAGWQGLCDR

Study 1 — effect on: cell-free assay; method: competition with immobilised ligand; concentration: 1 µM
SMILES: C[C@@H]1CN(c2cc(-c3nn(C)c4ccc(OC5(C)CC5)cc34)ncn2)C[C@H](C)O1
| target | remaining binding |
| --- | --- |
| Serine/threonine-protein kinase Chk2 (CHEK2, Homo sapiens, UniProt O96017) | 97% |
| 5'-AMP-activated protein kinase catalytic subunit alpha-1 (PRKAA1, Homo sapiens, UniProt Q13131) | 93% |
| Dual specificity tyrosine-phosphorylation-regulated kinase 2 (DYRK2, Homo sapiens, UniProt Q92630) | 83% |
| Phosphatidylinositol 3-kinase C2 domain-containing subunit gamma (PIK3C2G, Homo sapiens, UniProt O75747) | 100% |
| NT-3 growth factor receptor (NTRK3, Homo sapiens, UniProt Q16288) | 65% |

Study 2 — organism: Plasmodium berghei; mode: inhibitor; cell line: Huh-7; strain: GFP-expressing sporozoites, liver stage; concentration: 10 µM; time: 24 h; baseline: untreated control
| Structure (SMILES) | infection rate |
| --- | --- |
| O=c1ccc2ccccc2o1 | 27.7% |
| CCN1CCN(C(=O)N[C@@H](C(=O)N[C@@H]2C(=O)N3C(C(=O)O)=C(CSc4nnnn4C)CS[C@H]23)c2ccc(O)cc2)C(=O)C1=O | 96.8% |
| CC(CCc1ccc(O)cc1)NCCc1ccc(O)c(O)c1 (centres unmarked) | 98.4% |
| CCN(CC)CCCC(C)Nc1ccnc2cc(Cl)ccc12 (centres unmarked) | 119% |
| CCCCNc1cc(C(=O)O)cc(S(N)(=O)=O)c1Oc1ccccc1 | 103% |
| Cc1cc(=O)n(-c2ccccc2)n1C | 101% |
| CC(=O)Oc1ccc(C(c2ccc(OC(C)=O)cc2)c2ccccn2)cc1 | 97.1% |

Study 3 — sample: plasma; route: oral
SMILES: COc1ccc(-c2c(Nc3ccccn3)[nH]c3c(C4=CCCCC4)c(-c4ccccc4)nn3c2=O)cc1
| assay | test system | setting | plasma concentration, mean |
| --- | --- | --- | --- |
| LC-MS/MS | human | 50 mg once daily, 24 h, cycle 1 | 1140 ng/mL |
| – | cancer patients | 50 mg, 0 h post-dose, single dose | 0 ng/mL |
| LC-MS/MS | human | 200 mg twice daily, 4 h, single dose | 1610 ng/mL |
| – | cancer patients | 50 mg, 2 h post-dose, single dose | 360 ng/mL |
| – | cancer patients | 150 mg, 72 h post-dose, single dose | 300 ng/mL |
| – | cancer patients | 400 mg, 1 h post-dose, single dose | 406 ng/mL |
| – | human patients | 150 mg once daily, 6 h, cycle 1 | 5270 ng/mL |

Study 4 — Compound: CCN(CC)CCCCN1c2ccccc2Oc2ccc(Cl)cc21; effect on: enzyme activity; mode: inhibitor; concentration: 0.5 µM; baseline: control
| target | remaining activity [%] |
| --- | --- |
| Serine/threonine-protein kinase MRCK beta (CDC42BPB, Homo sapiens, UniProt Q9Y5S2) | 99.7 |
| Misshapen-like kinase 1 (MINK1, Homo sapiens, UniProt Q8N4C8) | 111 |
| Serine/threonine-protein kinase DCLK2 (DCLK2, Homo sapiens, UniProt Q8N568) | 101 |
| Serine/threonine-protein kinase Nek3 (NEK3, Homo sapiens, UniProt P51956) | 103 |
| Serine/threonine-protein kinase MARK2 (MARK2, Homo sapiens, UniProt Q7KZI7) | 86.1 |
| Ribosomal protein S6 kinase alpha-4 (RPS6KA4, Homo sapiens, UniProt O75676) | 80.8 |
| MAP/microtubule affinity-regulating kinase 4 (MARK4, Homo sapiens, UniProt Q96L34) | 97.2 |
| Serine/threonine-protein kinase PAK 3 (PAK3, Homo sapiens, UniProt O75914) | 116 |
| Dual specificity protein kinase CLK3 (CLK3, Homo sapiens, UniProt P49761) | 104 |
| Mitogen-activated protein kinase 1 (MAPK1, Homo sapiens, UniProt P28482) | 84.7 |
| RAC-beta serine/threonine-protein kinase (AKT2, Homo sapiens, UniProt P31751) | 101 |
| Dual specificity mitogen-activated protein kinase kinase 1 (MAP2K1, Homo sapiens, UniProt Q02750) | 98.1 |
| Tyrosine-protein kinase TXK (TXK, Homo sapiens, UniProt P42681) | 101 |

Some of these lines once more (study 3):
| assay | test system | setting | plasma concentration, mean |
| --- | --- | --- | --- |
| LC-MS/MS | human | 200 mg twice daily, 4 h, single dose | 1610 ng/mL |
| – | cancer patients | 50 mg, 2 h post-dose, single dose | 360 ng/mL |
| – | cancer patients | 150 mg, 72 h post-dose, single dose | 300 ng/mL |
